Measured values pooled from the literature.
A part holds a random share of what one study measured.

Block 1
Target: Phosphate system positive regulatory protein PHO4, full length, GST-tagged (PHO4, Saccharomyces cerevisiae, UniProt P07270, residues 1-312)
UniProt P07270, sequence (whole entry, looked up): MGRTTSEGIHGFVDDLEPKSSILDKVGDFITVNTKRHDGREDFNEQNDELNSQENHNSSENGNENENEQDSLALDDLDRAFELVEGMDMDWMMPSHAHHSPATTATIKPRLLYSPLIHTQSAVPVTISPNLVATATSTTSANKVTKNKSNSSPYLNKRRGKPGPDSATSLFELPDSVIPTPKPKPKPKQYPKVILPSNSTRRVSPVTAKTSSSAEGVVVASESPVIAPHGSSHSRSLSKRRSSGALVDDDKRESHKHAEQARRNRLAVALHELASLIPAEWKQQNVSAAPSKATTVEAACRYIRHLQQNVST
Technique: competition protein-binding microarray
Form: double-stranded DNA, one strand shown
Matrix: in vitro
Tested at: 2 µM
Notes: whole 60-bp probe, lowest competitor level
With: Cbf1 competitor, 0.05 µM
Direction: higher = stronger binding
Constant ends, left off below: … GTCTTGATTCGCTTGACGCTGCTG
Oligonucleotide	fluorescence intensity
CCGTAGAGGCTTTTGCCCGTGCTTTGAGACAACTGC	6950 a.u.
CACCGTCCTATTCGTCACGCTCCAGGCAGAGACATG	8140 a.u.
CATACCCAACCTTGTCACTAAACTTAAGATATTTGT	3620 a.u.
TTTAGTAATAATAATGATTTAATTAATGATAGTATA	3800 a.u.
CATACCCAACCTTGCGAGGTGGGTGAAGATATTTGT	3900 a.u.
CTTGACTATCCAGATCGTGTGAGAGGGCAACTGTGT	6220 a.u.

Block 2
Target: Sal-like protein 4, full length isoform B (SALL4, Homo sapiens, UniProt Q9UJQ4-2, residues 1-616)
Technique: universal PBM
Form: double-stranded DNA, one strand shown
Matrix: in vitro
Tested at: not given
Notes: 8-mer, flanks averaged, mean of replicates
Direction: higher = stronger binding
Oligonucleotide	E-score
AGATTACC	0.104
TGCATCAA	0.102
ATCTCTAA	0.0845
TACGCGGA	0.0326
TTAACAAA	0.29

Mixed results
Substance	tested on	test	system	setting	scale	quantity	value
ENO1 (Homo sapiens, UniProt P06733)	EIF2B2 (Homo sapiens, UniProt P49770)	cross-linking MS	cell fractions	with: DSSO	–	cross-linked residues	K233 to S227
PhoQ, residues 284 288 289 292 302 303 SQSLSM	PhoP, residues 12 14 15 18 19 STHWV (Escherichia coli, UniProt P23836)	Sort-seq, item: YFP reporter	E. coli	PhoQ-PhoP variant library, with: 10 µM Mg2+	relative to: high Mg2+ state, higher = stronger signaling	fold induction	0.774
DDX50 (Homo sapiens, UniProt Q9BQ39)	TRIM5 (Homo sapiens, UniProt Q9C035)	cross-linking MS	cell fractions	with: DMTMM	–	cross-linked residues	K213 to D293

Some of these lines once more (block 2):
Oligonucleotide	E-score
ATCTCTAA	0.0845
